{"data": "Measured values from different studies", "note": "Parts stem from different laboratories: compare values within a part only. Positions count from the first letter of the parent shown."}
{"data": "Block 1", "target": "Hepatocyte nuclear factor 3-beta, forkhead domain (FOXA2, Homo sapiens, UniProt Q9Y261, residues 142-269)", "technique": "protein-binding microarray", "molecule type": "double-stranded DNA, one strand shown", "sample": "in vitro", "concentration": "not given", "notes": "k-mer, scored over probes, only values ≥0.25", "reading": "higher = stronger binding", "Residues (chain)": "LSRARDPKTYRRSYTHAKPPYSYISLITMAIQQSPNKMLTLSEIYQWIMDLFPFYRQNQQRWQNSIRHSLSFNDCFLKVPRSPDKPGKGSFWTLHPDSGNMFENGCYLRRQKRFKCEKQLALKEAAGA"}
{"Sequence": "TTTACAAA", "E-score": 0.282}
{"Sequence": "CTTACTAC", "E-score": 0.269}
{"Sequence": "GTCAAACA", "E-score": 0.279}
{"Sequence": "AGTTACAA", "E-score": 0.301}
{"Sequence": "AATCAGTA", "E-score": 0.297}
{"Sequence": "ATAGGTAA", "E-score": 0.268}
{"Sequence": "CAGTCATA", "E-score": 0.251}
{"Sequence": "ATACATGA", "E-score": 0.334}
{"data": "Block 2", "target": "CCND3, cyclin fold, Cln2 fusion (human)", "technique": "yeast growth competition, sequencing", "sample": "yeast", "notes": "weak parent motif", "reference": "not given", "reading": "higher = stronger binding", "starting sequence": "viral docking peptide; TSVRRALFTGGSD; partner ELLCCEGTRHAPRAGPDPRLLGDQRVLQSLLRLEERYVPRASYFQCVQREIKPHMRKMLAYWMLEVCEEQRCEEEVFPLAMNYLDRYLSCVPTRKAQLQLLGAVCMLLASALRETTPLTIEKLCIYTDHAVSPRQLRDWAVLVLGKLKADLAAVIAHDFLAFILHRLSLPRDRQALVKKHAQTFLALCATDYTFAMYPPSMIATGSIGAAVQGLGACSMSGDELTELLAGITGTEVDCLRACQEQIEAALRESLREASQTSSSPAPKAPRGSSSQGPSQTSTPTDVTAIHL"}
{"Change": "TSKRRALFTGGSD [V3K]", "normalised enrichment score": 0.37}
{"Change": "TSVRRRLFTGGSD [A6R]", "normalised enrichment score": 0.432}
{"Change": "TNVRRALFTGGSD [S2N]", "normalised enrichment score": 0.177}
{"Change": "TSVRRALFTGHSD [G11H]", "normalised enrichment score": -0.116}
{"Change": "TSVRRALFRGGSD [T9R]", "normalised enrichment score": 0.269}
{"Change": "TSVRRALFTGGGD [S12G]", "normalised enrichment score": -0.16}
{"Change": "TSVRRAGFTGGSD [L7G]", "normalised enrichment score": 0.252}
{"Change": "TSVRRALFGGGSD [T9G]", "normalised enrichment score": 0.488}
{"Change": "TTVRRALFTGGSD [S2T]", "normalised enrichment score": 0.0348}
{"Change": "TSVRRALLTGGSD [F8L]", "normalised enrichment score": 0.16}
{"Change": "TSVRRALFTGGSA [D13A]", "normalised enrichment score": 0.121}
{"Change": "TSVRRELFTGGSD [A6E]", "normalised enrichment score": 0.0584}
{"Change": "TSVRTALFTGGSD [R5T]", "normalised enrichment score": -0.109}
{"data": "Block 3", "target": "Sal-like protein 4, full length isoform A (SALL4, Homo sapiens, UniProt Q9UJQ4, residues 1-1053)", "technique": "universal PBM", "molecule type": "double-stranded DNA, one strand shown", "sample": "in vitro", "concentration": "600 nM", "notes": "8-mer, flanks averaged, mean of replicates", "reading": "higher = stronger binding", "sequence of UniProt Q9UJQ4 (whole entry, looked up)": "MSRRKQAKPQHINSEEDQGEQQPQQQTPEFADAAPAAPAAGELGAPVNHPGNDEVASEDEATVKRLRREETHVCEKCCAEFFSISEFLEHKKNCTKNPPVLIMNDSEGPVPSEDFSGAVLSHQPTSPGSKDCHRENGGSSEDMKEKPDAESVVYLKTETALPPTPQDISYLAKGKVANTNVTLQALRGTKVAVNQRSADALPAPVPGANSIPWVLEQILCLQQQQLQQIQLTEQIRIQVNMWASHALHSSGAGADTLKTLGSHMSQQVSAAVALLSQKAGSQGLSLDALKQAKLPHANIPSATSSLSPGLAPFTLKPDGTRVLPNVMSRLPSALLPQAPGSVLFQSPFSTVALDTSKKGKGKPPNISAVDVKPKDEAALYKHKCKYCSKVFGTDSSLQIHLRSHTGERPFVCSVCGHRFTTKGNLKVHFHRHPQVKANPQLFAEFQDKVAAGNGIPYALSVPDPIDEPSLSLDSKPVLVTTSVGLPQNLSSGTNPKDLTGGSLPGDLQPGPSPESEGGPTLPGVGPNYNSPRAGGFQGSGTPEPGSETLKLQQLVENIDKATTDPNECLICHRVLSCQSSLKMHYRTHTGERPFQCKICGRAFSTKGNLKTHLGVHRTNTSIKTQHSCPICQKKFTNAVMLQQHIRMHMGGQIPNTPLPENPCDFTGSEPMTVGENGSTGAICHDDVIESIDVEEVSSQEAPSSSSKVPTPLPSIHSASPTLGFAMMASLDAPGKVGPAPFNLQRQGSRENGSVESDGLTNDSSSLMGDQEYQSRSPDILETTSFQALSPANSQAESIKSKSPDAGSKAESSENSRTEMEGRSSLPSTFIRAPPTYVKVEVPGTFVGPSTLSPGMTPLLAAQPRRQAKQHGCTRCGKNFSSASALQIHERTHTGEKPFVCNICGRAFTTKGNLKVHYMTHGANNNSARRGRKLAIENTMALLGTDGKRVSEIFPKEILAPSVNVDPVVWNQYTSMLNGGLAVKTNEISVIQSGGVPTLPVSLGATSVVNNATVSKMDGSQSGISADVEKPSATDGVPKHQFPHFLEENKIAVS"}
{"Sequence": "GCTCATAC", "E-score": 0.0504}
{"Sequence": "CACTCCTC", "E-score": -0.161}
{"Sequence": "AATGTACG", "E-score": 0.00192}
{"Sequence": "AGTGTTAC", "E-score": 0.147}
{"Sequence": "CGCGACCA", "E-score": -0.216}
{"Sequence": "GATAAGAA", "E-score": 0.278}
{"Sequence": "CGTGCCAA", "E-score": -0.233}
{"Sequence": "CGAGAGTA", "E-score": 0.0787}
{"data": "Single results of other studies", "technique": "cross-linking MS"}
{"Substance": "PSME1 (Homo sapiens, UniProt Q06323)", "partner": "PSME2 (Homo sapiens, UniProt Q9UL46)", "setting": "hits only", "quantity": "interaction screen", "result": "cross-linked"}
{"Substance": "HSPA1L (Homo sapiens, UniProt P34931)", "partner": "SLC25A24 (Homo sapiens, UniProt Q6NUK1)", "system": "cell fractions", "setting": "added: DMTMM", "quantity": "cross-linked residues", "result": "K552 to E420"}
{"Substance": "DLD (Homo sapiens, UniProt P09622)", "partner": "LANCL3 (Homo sapiens, UniProt Q6ZV70)", "system": "cell fractions", "setting": "added: DSSO", "quantity": "cross-linked residues", "result": "K346 to K199"}
{"Substance": "ITSN1 (Homo sapiens, UniProt Q15811)", "partner": "EPS15L1 (Homo sapiens, UniProt Q9UBC2)", "setting": "hits only", "quantity": "interaction screen", "result": "cross-linked"}
